# Results gathered from unrelated publications.
# Each line is one published result; not all experiments were run side by side. Values joined by “and” are separate records of one study, mostly repeats; a detail may differ.
Structure (SMILES),cell line,assay,conditions,scale,endpoint,result
COC1CN([C@H]2CC[C@H]([C@@]3(C)Oc4c(Cl)cc(C(=O)NCc5c(SC)cc(C)[nH]c5=O)c(C)c4O3)CC2)C1,RT-4,"cell growth or viability, ATP luminescence",6 days,,GI50,> 10000 nM
CNS(=O)(=O)Nc1nccc(Cc2c(C)c3ccc(Oc4ncccc4F)cc3oc2=O)c1F,CFPAC-1,cell viability,7 days,,IC50,358 nM
CN1CCCNC(=O)c2cccc(c2)C(=O)NCCCN(C)CCCNc2cccc3c2C(=O)c2cccc(c2C3=O)NCCC1,SAS,"RNA-Seq, measured: TRA2B mRNA","1 µM, 6 h",relative to: untreated cells,log2 fold change,0.393
CC1(C)CC[C@@]2(CO)C(=C3C=C[C@@H]4[C@@]5(C)CC[C@H](O)[C@@](C)(CO)[C@@H]5CC[C@@]4(C)[C@]3(C)C[C@@H]2O)C1,"HepG2, SIRT1 siRNA","Western blot, measured: SIRT1","concentration not given, high dose, unit not given, with: ethanol",relative to: β-actin,protein level,0.278 and 0.233 and 0.334
COc1cc(N2CCN(C(=O)C3CCCN3)CC2)ccc1Nc1ncc(Cl)c(Nc2ccccc2P(C)(C)=O)n1 (centres unmarked),NCI-H3122,CCK-8,"50 nM, 48 h",,viability,35%
[Cl-].[Cl-].[Ru+2].c1cc(-c2ccc3cccnc3n2)nc(-c2ccc3cccnc3n2)c1.c1ccc2cc3nc4c5cccnc5c5ncccc5c4nc3cc2c1,B16-F10,resazurin,"with: light 633 nm, 100 J/cm2",relative to: dark EC50 over light EC50,phototoxicity index,1
CCN(C(=O)c1cc(F)ccc1Oc1nncnc1N1CCC2(C1)CN([C@H](CCCN(C)CCOC)C(C)C)C2)C(C)C,OVCAR-4,cell growth or viability,7 days,,GI50,> 10000 nM
CCOc1cncc(-c2ccc(NC(=O)C3(c4ccnc(NS(=O)(=O)C5CC5)n4)CCOCC3)nc2)n1,SK-N-MC,"cell growth or viability, ATP luminescence",72 h,,IC50,293 nM
COC1=C2CC(C)CC(OC)C(O)C(C)C=C(C)C(OC(N)=O)C(OC)C=CC=C(C)C(=O)NC(=CC1=O)C2=O (centres unmarked),Rh30,"ChIP-seq, measured: H3K36me3 peak","concentration not given, SOCS3 TTS chr17:76347000-76357399",relative to: untreated control,log fold change,-0.825
O=C1c2c(O)cc(O)cc2-c2c(-c3ccc(O)cc3)oc3cc(O)cc1c23,LCC2 shControl cells,"label-free MS proteomics, measured: CDKN1A",10 µM,relative to: DMSO,protein level ratio,10.8
CC(C)(C)c1cc(-c2ccc3cc4ccccc4nc3n2)nc(-c2ccc3cc4ccccc4nc3n2)c1.Cc1ccncc1.[Cl-].[Cl-].[Ru+2].c1ccc2cc3nc4c5cccnc5c5ncccc5c4nc3cc2c1,B16-F10,resazurin,"with: light 733 nm, 9 mW, 100 J/cm2",,EC50,15000 nM
COC(=O)c1cc(NC2=NC(=O)C(=Cc3ccc(N(C)C)cc3)S2)ccc1OC(C)=O,A549,measured: CLSPN mRNA,"2.93 µM (IC50), 24 h",relative to: DMSO,fold change,0.018
CC(C)(C)c1cc(-c2ccc3cccnc3n2)nc(-c2ccc3cccnc3n2)c1.[Cl-].[Cl-].[Ru+2].c1cnc2c(c1)ccc1cccnc12,B16-F10,resazurin,"with: light 523 nm, 100 J/cm2",relative to: dark EC50 over light EC50,phototoxicity index,1
CCN(CC)CC(=O)Nc1cccc(-n2cc(-c3ccc4ccc(-c5cn(-c6cccc(NC(=O)CN(CC)CC)c6)nn5)cc4c3)nn2)c1,RCC4,"PCR array, measured: LEP","5 x IC50, 6 h, normoxia",relative to: untreated,fold regulation,1.56
CCn1nc(Cl)c2c1-c1cnc(N)c(c1)O[C@H](C)c1cc(F)ccc1-c1nn(C)cc1C2,NCI-H2228 (EML4-ALK variant 3),cell viability,,,Emax,29.4%
[BH3-][P+]1(c2ccccc2)CCCCC1,HCT-116,annexin V/PI flow cytometry,"IC50, 72 h",,necrotic cells,0.55%
NC(=O)c1ccc(-c2ccccc2Cl)c2c3c([nH]c12)CC[C@@H](N)C3,SU-DHL-4,cell growth or viability,,,IC50,22.2 nM
O=C(N1CCCC1)n1cc(-c2ccc(-c3ccccc3)cc2)nn1,mouse T cells,"N-terminal labelling proteomics, measured: Larp4 N-terminal peptide","0.001 µM, 6 h",relative to: DMSO,SILAC ratio per peptide,0.9 and 0.98
CC(C)c1ccc(N(C)c2ccc3c(c2)OCC[C@H]3CNc2cnccc2C(=O)O)cc1,OVISE,"cell growth or viability, ATP luminescence",7 days,,IC50,24 nM
O=C(C[Se]C(=O)c1cc2ccccc2[nH]1)Nc1cccc(C(F)(F)F)c1,OVCAR-4,"cell growth or viability, SRB",,,GI50,700 nM
COc1ccc(NC(=O)c2ccc3[nH]c(-c4ccc(N(C)C)cc4)nc3c2)cn1,HCT116,IncuCyte,"concentration not given, 12 h",,dead cell to confluence ratio,78.8 and 26.1 and 126
O=C(C[Se]C(=O)c1ccc2ccccc2c1)Nc1cccc(C(F)(F)F)c1,NCI60 breast subpanel,cell growth,"10 µM, 48 h, one-dose",,mean growth percent,-64.3%
Cc1ncsc1-c1ccc(C(C)NC(=O)C2CC(O)CN2C(=O)C(NC(=O)CCCCCCCCCCN2CCCC(Nc3ncc(Cl)c(Nc4ccccc4S(=O)(=O)C(C)C)n3)C2)C(C)(C)C)cc1 (centres unmarked),22Rv1,"RNA-seq, measured: YEATS2-AS1",concentration not given,relative to: DMSO,log2 fold change,-1.89
Cn1ncc2cc(-c3cncc(Cl)c3N3CCC4(CCNC4=O)CC3)ccc21,LS174T,"gene expression, microarray, measured: SLC40A1 mRNA","concentration not given, 24 h",relative to: untreated cells,log2 fold change,2.03
C=CC(=O)N1[C@H](c2ccc3c(c2)OCO3)c2[nH]c3ccccc3c2C[C@@H]1C(=O)NC,rat DRG neurons,,"30 µM, 48 h, with: vincristine 40 nM",,neuron degeneration,17.2% and 13.6%
COc1ccccc1-c1ccncc1C(=O)Nc1nnc(OCc2ccc(Cl)cc2)s1,MDA-MB-231,,"12 µM, mean of 3 replicates",relative to: untreated,colony survival,71.9%

# For quick reference, copied from above:
Structure (SMILES),cell line,assay,conditions,scale,endpoint,result
COC(=O)c1cc(NC2=NC(=O)C(=Cc3ccc(N(C)C)cc3)S2)ccc1OC(C)=O,A549,measured: CLSPN mRNA,"2.93 µM (IC50), 24 h",relative to: DMSO,fold change,0.018
O=C(C[Se]C(=O)c1cc2ccccc2[nH]1)Nc1cccc(C(F)(F)F)c1,OVCAR-4,"cell growth or viability, SRB",,,GI50,700 nM
Cc1ncsc1-c1ccc(C(C)NC(=O)C2CC(O)CN2C(=O)C(NC(=O)CCCCCCCCCCN2CCCC(Nc3ncc(Cl)c(Nc4ccccc4S(=O)(=O)C(C)C)n3)C2)C(C)(C)C)cc1 (centres unmarked),22Rv1,"RNA-seq, measured: YEATS2-AS1",concentration not given,relative to: DMSO,log2 fold change,-1.89
